Measurements from different studies.
Every numbered part comes from another study and shows a few of its results, in no order. Substitutions count along the parent as printed.

Study 1
Target: CCND2, cyclin fold, Cln2 fusion (human)
Technique: yeast growth competition, sequencing
Sample: yeast
Setting: weak parent motif
Reference: not given
Direction: higher = stronger binding
Starting sequence: GMNC docking peptide (human); KNAKRNLSSEFAN
`S9T` — result for “normalised enrichment score”: 0.855.
`S8A` — result for “normalised enrichment score”: -0.0312.
`L7P`: “normalised enrichment score” 0.0101.
For `N2P`, “normalised enrichment score” read 0.656.
`N6M`: “normalised enrichment score” -0.215.
`N2G` — result for “normalised enrichment score”: 0.417.
`K4Q` — result for “normalised enrichment score”: 0.493.
`A12N`: “normalised enrichment score” 0.319.
Under “normalised enrichment score”, `N6Q` is recorded as -0.12.
`K4Y`: “normalised enrichment score” 0.322.
For `S9Q`, “normalised enrichment score” read 0.0753.
Under “normalised enrichment score”, `L7V` is recorded as -0.00777.
Under “normalised enrichment score”, `K4N` is recorded as -0.0432.
Under “normalised enrichment score”, `N6I` is recorded as -0.207.
For `L7K`, “normalised enrichment score” read 0.422.
`S9D` — result for “normalised enrichment score”: 0.366.
`R5D` — result for “normalised enrichment score”: -0.151.
`L7Q` — result for “normalised enrichment score”: -0.0117.
For `L7A`, “normalised enrichment score” read 0.336.

Study 2
Target: UBE2G2 UBC core domain (UniProt P60604)
Technique: yeast two-hybrid
Sample: yeast
Setting: mostly zero background
Reference: not given
Direction: higher = stronger interaction
B1: RC3H1 RING domain (UniProt Q5TC82); chain QAPQWTDFLSCPICTQTFDETIRKPISLGCGHTVCKMCLNKLHRKACPFDQTTINTDIELL
B2: TRIM40 RING domain (UniProt Q6P9F5); chain LQKDNQEEGVCPICQESLKEAVSTNCGHLFCRVCLTQHVEKASASGVFCCPLCRKPCSEEVLG
B3: DTX4 RING domain (UniProt Q9Y2E6); chain QKVRHPPDEDCTICMERLTAPSGYKGPQPTVKPDLVGKLSRCGHVYHIYCLVAMYNNGNKDGSLQCPTCKTIYGVKTGTQ
B4: MKRN1 RING domain (UniProt Q9UHC7); chain FAVQRSKDMVCGICMEVVYEKANPSERRFGILSNCNHTYCLKCIRKWRSAKQFESKIIKSCPECRITSNFVIPSE
Target sequence (chain): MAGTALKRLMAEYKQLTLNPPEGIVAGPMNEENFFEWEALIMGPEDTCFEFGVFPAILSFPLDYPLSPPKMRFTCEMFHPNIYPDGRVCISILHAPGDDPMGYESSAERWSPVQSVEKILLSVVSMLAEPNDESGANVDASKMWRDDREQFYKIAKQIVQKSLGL
`GAAPGPEAAECLVCSELALLVLFSPCQHRTVCEECARRMKKCIRCQVVVSKKLRPD (MIB2 RING domain (UniProt Q96AX9))` — result for “lacZ reporter activity”: 0.
`PAELEVQASECVVCLEREAQMIFLNCGHVCCCQQCCQPLRTCPLCRQDIAQRLRIY (LRSAM1 RING domain (UniProt Q6UWE0))` — result for “lacZ reporter activity”: 0.
For `QVDKAVFHMQSVKCLKCQEQKRAVLPCQHAALCELCAEGSECPICQPGRAHTLQS (UNK RING domain (UniProt Q9C0B0))`, “lacZ reporter activity” read 0.
`B1 (RC3H1 RING domain)`: “lacZ reporter activity” 0.
Under “lacZ reporter activity”, `B2 (TRIM40 RING domain)` is recorded as 0.
Under “lacZ reporter activity”, `FQGDVDEDLICPICSGVLEEPVQAPHCEHAFCNACITQWFSQQQTCPVDRSVVTVAHLRP (RNF41 RING domain (UniProt Q9H4P4))` is recorded as 1050.
For `B3 (DTX4 RING domain)`, “lacZ reporter activity” read 0.
For `B4 (MKRN1 RING domain)`, “lacZ reporter activity” read 0.

Study 3
Target: RING finger protein unkempt homolog, zinc fingers 1-6, GST-SBP tag (UNK, Homo sapiens, UniProt Q9C0B0, residues 30-357)
Technique: RNA Bind-n-Seq
Molecule type: RNA
Sample: in vitro
Tested at: not given
Setting: RNA with constant flanks, human and mouse sites, ends assumed
Reference: input RNA pool
Direction: higher = stronger binding
`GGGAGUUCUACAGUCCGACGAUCAAUUUUCUUUUUUGGCCCUAGGCUGGUUGGGACCUCUACAGCUUCAUUCUUUCACCAUUAAAUAGUGGCCUUUUUCAGUAUUUUCCCUCUUCCCCUUUAUAAAUUAUGCUAAAGCCACAACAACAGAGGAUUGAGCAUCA` has a bound/input enrichment of 1.76 ratio.
`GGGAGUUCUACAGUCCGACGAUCUUUUUGAAGGGUGUGAUGCUUGGAAGCAUUUUCUGUGCUUUGAUCACUAUGCUAGGACACAUUAGGAUUGGUCAUGGAAAUAGAAUGCACCACCAUGAGCAUCAUCACCUACAAGCUCCUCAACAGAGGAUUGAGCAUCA` gave a bound/input enrichment of 0.192 ratio.
`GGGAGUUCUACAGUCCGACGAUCACCUCAUACCGUAUAAAUGUAAUCUCUCUGAUGCCAUUUAAUGCAGUGGACCUCUUUUCAGAAUCUAAUUGUCAGAUGCAGAAUUAACACUUGGAAUCUGGAGAAGCAUUUUGUACAAAUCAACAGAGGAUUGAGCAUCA` has a bound/input enrichment of 0.196 ratio.
For `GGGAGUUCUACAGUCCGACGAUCCCCAAGUUCCUCAUUUUACAGCUGGGGAAACUAAGGCCUAGAGAGAGGCAAGUGAUAUUUGUUUCAUGGCAGGGCUGGGCUGAGAUCCUGCUUUUCUGGGUCUGUCUUUUUGCUCUUUUGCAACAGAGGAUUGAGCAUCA`, the bound/input enrichment was 0.17 ratio.
For `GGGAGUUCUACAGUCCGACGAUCUGUGCCCACUCGAGUGCCUGUAAAGUACAAGCUCCAGAUCAAAAAAGCUUCUAGAUGGAUCCUUUCCAAACUUGGUGUCUUUUCUACAAACUCUGUGCCUCAACAACCAUUUCUAAGUGACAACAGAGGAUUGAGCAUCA`, the bound/input enrichment was 0.169 ratio.
`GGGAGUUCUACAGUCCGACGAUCUCCAAUUCAAACUAUAGUACUGUGUAAUUAUGUAUAAAGGUUUUUUUAUUUAUUUGAAAUUAGGUUAGAUAUACAUUUUUAAAUUUAACAUCUGGCUGGACAGUGUUCUAUUAACUCAUUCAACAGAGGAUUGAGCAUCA` gave a bound/input enrichment of 42.8 ratio.
`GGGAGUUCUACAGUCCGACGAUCGAAGAGGUUCUGCUGGAACAAGCUGGUGUAGAUGCAAGUGAAAGCUUUGAAGAUGUAGGACACUCUUCUGAUGCCAGAGAAAUGCUAAAGCAGUACUACAUUGGUGAUAUCCAUCCGUUGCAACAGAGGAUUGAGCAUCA` has a bound/input enrichment of 0.173 ratio.
`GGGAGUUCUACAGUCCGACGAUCCGCCUGAUGGAAAGCCACGGCUUUGAGGAGUACAUGAAAGAGCUAGGAGUAGGACUGGCUCUUAGGAAGAUGGCUGCCAUGGCCAAGCCAGACUGUAUCAUUACGUGUGAUGGCAACAACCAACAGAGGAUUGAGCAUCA` gave a bound/input enrichment of 0.208 ratio.
`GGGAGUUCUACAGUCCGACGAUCACUCCCUGGUUCUGGCCCAAAGACAAGACCAAAGUCUGGUCUAAGCCCAAAGAAGAGCCCAAUAGUAGGUCCUGGUUUAGGUCUAAGAAAGAAGUCCGUGUUGAAUCCACUUCUGGGUCUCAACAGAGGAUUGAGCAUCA` gave a bound/input enrichment of 0.582 ratio.
The bound/input enrichment of `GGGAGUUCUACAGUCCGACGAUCACUCCUGUUACCUUGAAAAAUAAAAAUGUUAACAGGAAUGCAGUGUGCUCAUUAUCCCUAACUAGCAAAUCCUACUUUAUGCAAAGCUGUUCUCUUGUUCUGCUGUUUUAAAUGUCCAUGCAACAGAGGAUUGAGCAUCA` is reported as 1.27 ratio.
For `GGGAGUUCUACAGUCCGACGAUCCCGUGUGACCCUUGGGCUUUCAGCGUGCACUCAGUUCCGUAGGAUUCCAAAGCAGACCCCUAGCUGGUCUUUGAAUCUGCAUGUACUUCACGUUUUCUAUAUUUGUAACUUUGCAUGUAUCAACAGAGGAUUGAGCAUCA`, the bound/input enrichment was 0.175 ratio.

Study 4
Target: ATF3, bZIP domain (human)
Technique: DHFR protein complementation
Sample: yeast
Setting: single substitutions, most at no-binding floor
Reference: wild-type JUN-FOS pair
Direction: higher = stronger binding
Starting sequence: JUN, bZIP domain (human); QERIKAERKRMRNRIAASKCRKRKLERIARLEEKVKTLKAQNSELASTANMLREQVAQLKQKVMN; partner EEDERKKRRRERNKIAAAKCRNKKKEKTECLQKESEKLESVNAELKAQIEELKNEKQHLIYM
`K36M` gave a binding fitness of -0.0132 natural log.
For `K34Y`, the binding fitness was -0.207 natural log.
`E54W` gave a binding fitness of -0.452 natural log.
`Q55Y` gave a binding fitness of -0.589 natural log.
`L38G` has a binding fitness of -1.08 natural log.
The binding fitness of `L52K` is reported as -1.52 natural log.
`R30I` gave a binding fitness of -0.0662 natural log.
`S47D` gave a binding fitness of -0.0707 natural log.
The binding fitness of `L45I` is reported as -1.05 natural log.

For quick reference, copied from above (study 2):
`GAAPGPEAAECLVCSELALLVLFSPCQHRTVCEECARRMKKCIRCQVVVSKKLRPD (MIB2 RING domain (UniProt Q96AX9))` — result for “lacZ reporter activity”: 0.
`PAELEVQASECVVCLEREAQMIFLNCGHVCCCQQCCQPLRTCPLCRQDIAQRLRIY (LRSAM1 RING domain (UniProt Q6UWE0))` — result for “lacZ reporter activity”: 0.
For `QVDKAVFHMQSVKCLKCQEQKRAVLPCQHAALCELCAEGSECPICQPGRAHTLQS (UNK RING domain (UniProt Q9C0B0))`, “lacZ reporter activity” read 0.
`B1 (RC3H1 RING domain)`: “lacZ reporter activity” 0.
Under “lacZ reporter activity”, `B2 (TRIM40 RING domain)` is recorded as 0.
Under “lacZ reporter activity”, `FQGDVDEDLICPICSGVLEEPVQAPHCEHAFCNACITQWFSQQQTCPVDRSVVTVAHLRP (RNF41 RING domain (UniProt Q9H4P4))` is recorded as 1050.
For `B3 (DTX4 RING domain)`, “lacZ reporter activity” read 0.
For `B4 (MKRN1 RING domain)`, “lacZ reporter activity” read 0.
